Assay results pooled from the literature.
Lines come from different studies, so protocols differ. Values joined by “and” are separate records of one study, mostly repeats; a detail may differ. ± marks the error that the study gave.
rep main protease: Replicase polyprotein 1ab, main protease (rep, Severe acute respiratory syndrome coronavirus 2, UniProt P0DTD1)
Spike glycoprotein: Spike glycoprotein (Severe acute respiratory syndrome coronavirus 2, UniProt P0DTC2)

Cn1cnc(Cn2c(=O)[nH]/c(=N\c3cc4cn(C)nc4cc3Cl)n(Cc3cc(F)c(F)cc3F)c2=O)n1 — result for “patients with adverse event”: 3.1% (human, all renal function groups; oral, 375 mg, decreased GFR TEAE, Moderate severity).
The inhibition of CN1CCc2nc(C(=O)N[C@@H]3C[C@@H](C(=O)N(C)C)CC[C@@H]3NC(=O)C(=O)Nc3ccc(Cl)cn3)sc2C1.Cc1ccc(S(=O)(=O)O)cc1.O is reported as 0.714% (rep main protease; reporter gene (Gaussia luciferase), inhibitor; 20 µM).
For Cc1ncc(/C=C\C(=O)N2C[C@@H](NC(=O)c3ccc[nH]c3=O)CC3(CCOCC3)C2)c(=O)[nH]1, the inhibition was 15.9% (rep main protease; enzyme activity; 5 µM).
Nc1ncnc2c1ccn2C1CCN(C(=O)c2ccc(S(=O)(=O)F)cc2)CC1 gave a kinact of 0.0047 s⁻¹ (Calmodulin-sensitive adenylate cyclase (cya, Bacillus anthracis, UniProt P40136)).
`voxilaprevir` gave an inhibition of -0.391% (rep main protease; enzyme activity, Gaussia luciferase reporter; SARS-CoV-2; 20 µM).
Nc1ncnc2c([C@@H]3N[C@H](CO)[C@@H](O)[C@H]3O)c[nH]c12 has an inhibition of 59.8% (Marburg virus; viral RNA in cell lysate; HeLa, Musoke; 25 µM, 24 h).
The inhibition of COc1cc2c(cc1OC)-c1c(C)c3ccc(OC)c(OC)c3c[n+]1CC2.O=[N+]([O-])[O-] is reported as -0.0235% (rep main protease; reporter gene (Gaussia luciferase), inhibitor; 20 µM).
The Hill slope of O=C(O)CNC(=O)CC1SC(=NN=Cc2c(-c3ccccc3)[nH]c3ccccc23)NC1=O (stereo not shown) is reported as 1.12 ± 0.12 (Replicase polyprotein 1ab, nsp14 N7-methyltransferase (rep, Severe acute respiratory syndrome coronavirus 2, UniProt P0DTD1); N7-methyltransferase activity, inhibitor, Py-FLINT).
For C#Cc1cncc(C(=O)N2CCC3(CC2)CN(C(=O)[C@H]2CCC[C@@H]2O)Cc2ccccc2O3)c1, the inhibition was 10% (rep main protease; enzyme activity, inhibitor; 5 µM, mean of runs).
CCc1c(C(=O)C(N)=O)c2c(OCC(=O)O)cccc2n1Cc1ccccc1 has a remaining activity of 86.1% and 83.1% and 78.4% (Daboia russelii venom phospholipase A2; enzyme activity, inhibitor; MP population; 1 µM, added: NOB substrate; relative to: venom alone).
With COc1ccc(C[C@@H]2c3cc(Oc4cc(C[C@@H]5c6cc(O)c(OC)cc6CCN5C)ccc4O)c(OC)cc3CCN2C)cc1 the kon was 959 M⁻¹ s⁻¹ (Spike glycoprotein; binding, BLI).
O=C(Cc1ccccc1)Nc1nnc(CCSCCc2nnc(NC(=O)Cc3ccccc3)s2)s1 gave an inhibition of -0.431% (rep main protease; reporter gene (mKate2), inhibitor; 20 µM).
COc1cccc(CNC(=O)C2CCN(Cc3cc4ccccc4n3Cc3ccccc3)CC2)c1OC gave a maximum response of 4.75% (SARS-CoV-2; cytopathic effect; USA_WA1/2020; retest, 8-point, duplicates).
The koff of O=C1O[C@H]2[C@@H]3OC(=O)c4cc(O)c(O)c(O)c4-c4c(cc(O)c(O)c4O)C(=O)OC[C@H]2O[C@@H](OC(=O)c2cc(O)c(O)c(O)c2)[C@@H]3OC(=O)c2cc(O)c(O)c3c2[C@@H]2C1=CC(=O)[C@](O)(O3)C2(O)O is reported as 0.000334 s⁻¹ (Spike glycoprotein; binding, BLI).
Clc1ccc2nc(N3CCC(NCCc4cccnc4)CC3)sc2c1 has a maximum response of 89.6% (SARS-CoV-2; cytopathic effect; USA_WA1/2020; round 2, 5-point).
The inhibition of O=C(NC[C@H](NC(=O)c1cncc2ccccc12)c1ccc2ccccc2c1)c1cn[nH]n1 is reported as 13.2% (rep main protease; enzyme activity, inhibitor; 5 µM, run 2).
Under “subjects with adverse event”, CC[C@H](C)[C@H](NC(=O)[C@H](CC(C)C)NC(=O)[C@H](Cc1c[nH]c2ccccc12)NC(=O)[C@H](CCC(N)=O)NC(=O)[C@@H](NC(=O)[C@H](Cc1ccccc1)NC(=O)[C@H](C)NC(=O)[C@H](CCCCNC(=O)COCCOCCNC(=O)COCCOCCNC(=O)CC[C@H](NC(=O)CCCCCCCCCCCCCCCCCCC(=O)O)C(=O)O)NC(=O)[C@H](CCC(N)=O)NC(=O)[C@H](C)NC(=O)[C@@H](NC(=O)[C@H](CCCCN)NC(=O)[C@H](CC(=O)O)NC(=O)[C@H](CC(C)C)NC(=O)C(C)(C)NC(=O)[C@@H](NC(=O)[C@H](CO)NC(=O)[C@H](Cc1ccc(O)cc1)NC(=O)[C@H](CC(=O)O)NC(=O)[C@H](CO)NC(=O)[C@@H](NC(=O)[C@H](Cc1ccccc1)NC(=O)[C@@H](NC(=O)CNC(=O)[C@H](CCC(=O)O)NC(=O)C(C)(C)NC(=O)[C@@H](N)Cc1ccc(O)cc1)[C@@H](C)O)[C@@H](C)O)[C@@H](C)CC)[C@@H](C)CC)C(C)C)C(=O)N[C@@H](C)C(=O)NCC(=O)NCC(=O)N1CCC[C@H]1C(=O)N[C@@H](CO)C(=O)N[C@@H](CO)C(=O)NCC(=O)N[C@@H](C)C(=O)N1CCC[C@H]1C(=O)N1CCC[C@H]1C(=O)N1CCC[C@H]1C(=O)N[C@@H](CO)C(N)=O is recorded as 0% (item: treatment-emergent back pain; healthy subjects; 4.5 mg, multiple ascending dose).
With Cc1cc(O[C@@H]2O[C@H](CO)[C@@H](O)[C@H](O)[C@H]2O)c2c(c1)C(=O)c1cc(O)cc(O)c1C2=O the kon was 191 M⁻¹ s⁻¹ (Spike glycoprotein; binding, biolayer interferometry).
With O=C(NC[C@H](NC(=O)c1cn[nH]c1-c1ccccn1)c1ccc2ccccc2c1)c1cn[nH]c1 the inhibition was 11% (rep main protease; enzyme activity; 5 µM).

Excerpt of the above:
Under “subjects with adverse event”, CC[C@H](C)[C@H](NC(=O)[C@H](CC(C)C)NC(=O)[C@H](Cc1c[nH]c2ccccc12)NC(=O)[C@H](CCC(N)=O)NC(=O)[C@@H](NC(=O)[C@H](Cc1ccccc1)NC(=O)[C@H](C)NC(=O)[C@H](CCCCNC(=O)COCCOCCNC(=O)COCCOCCNC(=O)CC[C@H](NC(=O)CCCCCCCCCCCCCCCCCCC(=O)O)C(=O)O)NC(=O)[C@H](CCC(N)=O)NC(=O)[C@H](C)NC(=O)[C@@H](NC(=O)[C@H](CCCCN)NC(=O)[C@H](CC(=O)O)NC(=O)[C@H](CC(C)C)NC(=O)C(C)(C)NC(=O)[C@@H](NC(=O)[C@H](CO)NC(=O)[C@H](Cc1ccc(O)cc1)NC(=O)[C@H](CC(=O)O)NC(=O)[C@H](CO)NC(=O)[C@@H](NC(=O)[C@H](Cc1ccccc1)NC(=O)[C@@H](NC(=O)CNC(=O)[C@H](CCC(=O)O)NC(=O)C(C)(C)NC(=O)[C@@H](N)Cc1ccc(O)cc1)[C@@H](C)O)[C@@H](C)O)[C@@H](C)CC)[C@@H](C)CC)C(C)C)C(=O)N[C@@H](C)C(=O)NCC(=O)NCC(=O)N1CCC[C@H]1C(=O)N[C@@H](CO)C(=O)N[C@@H](CO)C(=O)NCC(=O)N[C@@H](C)C(=O)N1CCC[C@H]1C(=O)N1CCC[C@H]1C(=O)N1CCC[C@H]1C(=O)N[C@@H](CO)C(N)=O is recorded as 0% (item: treatment-emergent back pain; healthy subjects; 4.5 mg, multiple ascending dose).
With Cc1cc(O[C@@H]2O[C@H](CO)[C@@H](O)[C@H](O)[C@H]2O)c2c(c1)C(=O)c1cc(O)cc(O)c1C2=O the kon was 191 M⁻¹ s⁻¹ (Spike glycoprotein; binding, biolayer interferometry).
